# Published values of several laboratories.
# Each numbered part is a random draw from the data of one study; scales do not carry over between parts. Changes are numbered by the printed parent chain.

# Sample 1
# Target: RING finger protein unkempt homolog, zinc fingers 1-6, SBP tag (UNK, Homo sapiens, UniProt Q9C0B0, residues 30-357)
# Chain of UniProt Q9C0B0 (30-357, looked up): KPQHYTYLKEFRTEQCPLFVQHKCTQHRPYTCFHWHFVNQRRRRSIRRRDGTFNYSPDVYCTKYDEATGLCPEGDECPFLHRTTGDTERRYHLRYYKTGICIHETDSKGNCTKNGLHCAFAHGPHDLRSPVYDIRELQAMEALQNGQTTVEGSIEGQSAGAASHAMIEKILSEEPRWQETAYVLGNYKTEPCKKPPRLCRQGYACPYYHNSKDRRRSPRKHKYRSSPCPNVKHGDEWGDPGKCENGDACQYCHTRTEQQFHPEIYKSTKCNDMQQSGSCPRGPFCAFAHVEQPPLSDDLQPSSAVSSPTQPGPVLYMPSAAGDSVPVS
# Technique: RNA Bind-n-Seq
# Form: RNA
# Matrix: in vitro
# Tested at: 100 nM
# Notes: RNA with constant flanks, vertebrate orthologous sites, ends assumed
# Reference: input RNA pool
# Reading: higher = stronger binding
# Shared flanks, not repeated: GGGAGUUCUACAGUCCGACGAUC … CAACAGAGGAUUGAGCAUCA
Strand,bound/input enrichment
UCAUGUAGUUUUGUAUUUUCAAGCAAAAAUCUUACUGUACUUGAAUGUCUUUUUUUUGGUUAGCACACCUUAGACUUGCUGUAAUUGUACUCAUGUCCCAGUAUCUAAAGUUCUUUCUGU,0.679 ratio
UUCACUAUCUGACUCGGGUGGAGGUUACAGAGUUUGAAGACAUAAAAUCGGGUUACAGAAUAGAUUUUUAUUUUGAUGAAAAUCCCUACUUCGAAAACAAAGUUCUCUCUAAAGAAUUCC,0.335 ratio
AUUCAAACCUGUGGUACCCUGGCCUCAUGUUGAAGGAGUAGAAGUGGACUUAGAGUCUAUUAGAAGAAAAAACAAGGCCAAAAAUGAACAAGAACACCGUGUUGGAGGAGAUUCUCAGAA,0.277 ratio
GUCCUUUUGCUCAGUCCCUGGCCAGGGUGGCAGGGCCAAGGUUUCACCAAGGAACUGCAUUUCAAAAAAAAUUUUUUUUAAUUGUGGUACAGGAAGCAACGUUGCUGAAACAGCCUCUGA,0.663 ratio
GACGCUUUGAUGUAAAAUUUGAAGUAAAGAGCAGCUGAUCACAAGCACAAUCUUCCCCUCUAGCCAUUUAAAAAAAUUAAAAAAUUAUAAAAAACAAAAACCUACUAGUCUUGAACAAAC,6.53 ratio
AUAUUGUAUGUAGAGACAAAUUUUCAUUGACCCCAUUGUGAAAUUCCCUAGCAAUUUAUUUAGAAUCUUAAUUUUUCUAAUUAAAGUUCACUGUGUUAGUCAUUUUUAGUAUAAUUAAAA,1.93 ratio
UAAUGCAAUGGUUGAAGGCUCUGAGCUCAGAAAGUUUCGGUCCAACUCUAGAGUUUAUCACCGGUACUUUCUUUUAGAUGCAGAUAUGCAGUCCCUGCGUUGGGAACCUUCAAAGAAGGA,0.363 ratio
AAAUAUACUUCAUGCCAUGGACUCCGUAUCGCACUGAUACUUUGAUAGAGUAUGCUUCUUUAGAGGACUUCCAAAACGGACGCCAGCAGACGACGUAUAAACUCCCGAAUCGAGUGGACG,0.889 ratio
UCCCCGUUACCCCUAAGGUAGGACUUUUUAAAAAUUGUGUCGCCACCACUUCCAAAAAUUUAGCAAUAUUGGAAGAAAAUGCUAAUAAAGUAAAAAAAUUUGCUUGCUGUUUUGGAAACC,0.421 ratio
UUGCCUACAAUAAUGAAAACCUACAGGAAUUUUUUUAUUUUUCAUUUUCUUCUUAGGCAUAGUUAGUCUUUUUCCCCCAGGCAGAUGAUUCUGAGUGUGGGAGUGUGUCUGCACAUGUUA,0.416 ratio
UCUUAUUGAUCAGGUCUGUAAAUGUGUACUAAAAAAAUCAGAGUUUAUUUAUAAACAGAAUAGUUUAUUUAAAGAGAAGCUCUUUUCCUUAUUGAUAUCAUGGUAUGCAUUAAUUCCAUU,0.0659 ratio

# Sample 2
# Target: RNA binding protein fox-1 homolog 2, RRM domain, GST-SBP tag (RBFOX2, Homo sapiens, UniProt O43251-10, residues 100-194)
# Technique: RNA Bind-n-Seq
# Form: RNA
# Matrix: in vitro
# Tested at: 365 nM
# Notes: natural RNA segment, single round, ends assumed
# Reference: no-protein control
# Reading: higher = stronger binding
# Shared flanks, not repeated: GGGAGUUCUACAGUCCGACGAUC … UGGAAUUCUCGGGUGCCAA
# Residues (chain): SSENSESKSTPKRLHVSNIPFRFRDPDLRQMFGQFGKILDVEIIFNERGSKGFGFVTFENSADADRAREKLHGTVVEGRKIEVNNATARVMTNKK
Strand,RBNS enrichment (R)
GACCAAGGACAUCAUGCUCUGUAUUUGACAGUAAAGUUUUACCUUAAAAAUGAGACCCCCAACUACCUAAAGCACCCAUCUUUGUAACUAGACCAUAACUAUACUGCUUU,0.339
AACAGAUUGAGGCACUGACGCAGCCAGCUUAGCCCAGCAUUACUGUCUCUGUUGUGAGCUUGCUCUUUGUUUUAAAAGGUGCCAGGGGUACAUUUUUGCACUGAAACCUA,0.346
ACUCCUAGCCUUGCCGCCUUCAAUAGAGAAGAAAUCCCUUUGCUAGAUAGGGUCCCCCAGGCAGUCCCCAGUGGCGGGACACAGGGGUCCGGCUGUGGAGCUCCCCUGCC,0.858
CCCCAGCCACAGGUAUGUGGAAUACGGUGAGGAAAAAAAAAAUUAAAAAAAAAAUGCAAGCUGUCAGGAUGCUUAAGCUCUUUUCAGACAUCUGCAGUUUCAUCCCUACC,0.451
AAAAUCCUCUGGCUGGCUAACUGGAAGCAUGUAGGAGAAUCCAAGCGAGGUCAACAGAGAAGGCAGGAAUGUGUGGCAGAUUUAGUGAAAGCUAGAGAUAUGGCAGCGAA,24.1
AGGCGGUGAGCCAGGCUGCAGGAAGGAGCCUCCCUCAGGGUUUCGGGAACCAGACCUCUCACCGGAAAGACCGAUUAACCAUGUCACCACCACGCCAUCAUCGUCACCGU,0.431
UAUGUCUCCGGGGUCACGCAGAGCCGUCAGCCACCACCCCAGCACCCGGCACAUAGGCGUCUCAUAAAAGCCCAUUUUAUGAGAACCAGAGCUGUUUGAGUACCCCGUGU,0.56
GAGCUGUGUGUGUCCACCGAGGCACGGCCAGGAAGAGGCAGCCUUUACCUGUGAGGGGCUCCAUGCUCCAGCAGCAGAGCAGGUUCUAGUGACAAUUCAACUUUUUAUGC,0.214
CCCAGAGUGGCACUCAAAGUACUAUCAAACAAUAAAAGGAAAAUGGUGCUGUUUGAAGUUACAUCCCUUCUCUUUGGAGGAUUUAAAAAUGAUCUAUCUUUUGGUCCACU,0.548
CAGUUUUCUGUCACUGGUGGGCACUGGACAGGCAUAGCAGACUCUCUUGUGGCCACACUAGGUUGUCGCCUUUCAGGCAGUGUCCCGCCACCUUUGCUUCCCGCUCCUUC,0.382
GAAAAUCUUAGUGUCUCCUGGUGGAGGGGAAGGACCGGCUGCCUCACCCCACUCCCUGAUCUCACAAAAGUGCGAGUUUCCAGUCCUGACUAACUAGGGCUCCAGUCAGU,0.389
CCCCUGUCCCCACUCCCACCCCCUAGGGUCCUUGCUCCCAGUAUCUUCCUACAGGGAAGAAGAGCAACCCUCAGCAGCCCUCUUGCCCCUCCAUGGGGUGAAGCCACACU,0.394

# Sample 3
# Target: Interferon regulatory factor 5, full length, phosphomimetic (IRF5, Homo sapiens, UniProt Q13568-2, residues 1-514, S451D/S453D/S456D/S462D)
# Technique: protein-binding microarray
# Form: double-stranded DNA, one strand shown
# Matrix: in vitro
# Tested at: 940 nM top
# Notes: 60-bp whole probe
# Together with: salmon DNA 0.4 mg/ml
# Reference: random background probes
# Reading: higher = stronger binding
# Shared flanks, not repeated: GCCTAGCAC … GTCTTGATTCGCTTGACGCTGCTG
Strand,fitted relative affinity
TTAGGTTTCGAAACTGGGTTAGTGCTA,8.2 z-score
TCAGTTGTAGGTTTTCTGACTGTGCTA,-0.144 z-score
TTAGATATCGGGTTTCTATTAGTGCTA,1.5 z-score
TCACTTCTCCCTTTCAGTTTGTGCTAG,1.46 z-score
TTAGGGATCGGTCTCGGTTAGTGCTAG,2.34 z-score
TTAGAGTTCGGGTATCGATTAGTGCTA,2.65 z-score
TTAGGTTTCCTTTCCCTTGAGTGCTAG,2.54 z-score
GACGGTATCGGTTTCGGGCCGTGCTAG,9.24 z-score
TCCGTATGGATGGCCAATTGGTGCTAG,-0.683 z-score
TCACATTTTGGTTTTCTACTGTGCTAG,1.41 z-score
GACGGTCTCGCTATCGGGACGTGCTAG,1.27 z-score
GACGGTATCCTATTCCTGACGTGCTAG,0.371 z-score
TTAGGTATCGGTTTCGGTTTGTGCTAG,12.3 z-score
TTAGATTTCAGTTCCGAATAGTGCTAG,0.819 z-score
TTGTGTTTGGGCATTTTTCTAGTGCTA,-0.454 z-score
GACGGTCTCGGTCTCGAGACGTGCTAG,4.14 z-score
TCAAGCCTCAGTCCTCACACTGTGCTA,0.029 z-score
TTAGGACAGGGACTGGGTTAGTGCTAG,-0.426 z-score

# Sample 4
# Target: ABI1, truncated, D143A, DHFR fusion (Arabidopsis thaliana)
# Technique: DHFR PCA, deep sequencing
# Matrix: yeast
# Notes: methotrexate growth selection, single substitutions
# Together with: (+)-ABA 1.4 µM
# Reference: wild-type fitted maximum
# Reading: higher = stronger binding
# Parent: PYL1, truncated, DHFR fusion (Arabidopsis thaliana); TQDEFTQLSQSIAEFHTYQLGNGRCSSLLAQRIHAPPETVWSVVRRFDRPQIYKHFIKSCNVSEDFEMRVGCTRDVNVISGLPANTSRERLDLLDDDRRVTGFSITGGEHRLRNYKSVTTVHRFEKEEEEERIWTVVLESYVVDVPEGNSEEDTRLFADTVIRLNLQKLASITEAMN; partner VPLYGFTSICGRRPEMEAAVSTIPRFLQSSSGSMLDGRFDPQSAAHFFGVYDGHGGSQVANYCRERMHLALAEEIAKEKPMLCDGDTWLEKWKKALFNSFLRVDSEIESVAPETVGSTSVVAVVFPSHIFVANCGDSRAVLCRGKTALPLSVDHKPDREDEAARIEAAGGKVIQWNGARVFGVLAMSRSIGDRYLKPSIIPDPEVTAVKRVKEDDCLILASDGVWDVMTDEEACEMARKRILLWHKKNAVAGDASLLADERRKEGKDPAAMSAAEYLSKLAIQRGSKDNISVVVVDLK
Change,relative binding score [%]
E174D,1.17
E4Y,27.1
R46P,-1.38
M68I,56
F15P,-11.2
Q10C,49.2
E127C,52.9
S63A,68.5
C72E,43.2
R123K,83.5
V44W,-11.9
E38S,41.8
A13I,26.3
D48C,-3.72
S104R,1.9
F47M,1.04

# Sample 5
# Target: CCNB2, cyclin fold, Cln2 fusion (human)
# Technique: yeast growth competition, sequencing
# Matrix: yeast
# Notes: weak parent motif
# Reference: not given
# Reading: higher = stronger binding
# Parent: BORA docking peptide (human); SSLRRKLFLDGNG
Change,normalised enrichment score
D10A,-0.0593
R5K L9F,1.41
F8A,0.702
R5A L7A,-0.253
L3A,0.0154
R5A,0.208
S1A,0.739
F8L,0.605
L9A,-0.192
R5K F8L,0.413
K6A,0.431

# Mixed results
Molecule,target,test,test system,setting,how to read,quantity,value
"PhoQ, residues 284 288 289 292 302 303 SMMNNA","PhoP, residues 12 14 15 18 19 VQALL (Escherichia coli, UniProt P23836)","Sort-seq, item: YFP reporter",E. coli,"PhoQ-PhoP variant library, together with: 10 µM Mg2+","reference: high Mg2+ state, higher = stronger signaling",fold induction,6.25

# For quick reference, copied from above (sample 2):
Strand,RBNS enrichment (R)
AACAGAUUGAGGCACUGACGCAGCCAGCUUAGCCCAGCAUUACUGUCUCUGUUGUGAGCUUGCUCUUUGUUUUAAAAGGUGCCAGGGGUACAUUUUUGCACUGAAACCUA,0.346
ACUCCUAGCCUUGCCGCCUUCAAUAGAGAAGAAAUCCCUUUGCUAGAUAGGGUCCCCCAGGCAGUCCCCAGUGGCGGGACACAGGGGUCCGGCUGUGGAGCUCCCCUGCC,0.858
CCCCAGCCACAGGUAUGUGGAAUACGGUGAGGAAAAAAAAAAUUAAAAAAAAAAUGCAAGCUGUCAGGAUGCUUAAGCUCUUUUCAGACAUCUGCAGUUUCAUCCCUACC,0.451
AAAAUCCUCUGGCUGGCUAACUGGAAGCAUGUAGGAGAAUCCAAGCGAGGUCAACAGAGAAGGCAGGAAUGUGUGGCAGAUUUAGUGAAAGCUAGAGAUAUGGCAGCGAA,24.1
AGGCGGUGAGCCAGGCUGCAGGAAGGAGCCUCCCUCAGGGUUUCGGGAACCAGACCUCUCACCGGAAAGACCGAUUAACCAUGUCACCACCACGCCAUCAUCGUCACCGU,0.431
UAUGUCUCCGGGGUCACGCAGAGCCGUCAGCCACCACCCCAGCACCCGGCACAUAGGCGUCUCAUAAAAGCCCAUUUUAUGAGAACCAGAGCUGUUUGAGUACCCCGUGU,0.56
GAGCUGUGUGUGUCCACCGAGGCACGGCCAGGAAGAGGCAGCCUUUACCUGUGAGGGGCUCCAUGCUCCAGCAGCAGAGCAGGUUCUAGUGACAAUUCAACUUUUUAUGC,0.214
CCCAGAGUGGCACUCAAAGUACUAUCAAACAAUAAAAGGAAAAUGGUGCUGUUUGAAGUUACAUCCCUUCUCUUUGGAGGAUUUAAAAAUGAUCUAUCUUUUGGUCCACU,0.548
CAGUUUUCUGUCACUGGUGGGCACUGGACAGGCAUAGCAGACUCUCUUGUGGCCACACUAGGUUGUCGCCUUUCAGGCAGUGUCCCGCCACCUUUGCUUCCCGCUCCUUC,0.382
GAAAAUCUUAGUGUCUCCUGGUGGAGGGGAAGGACCGGCUGCCUCACCCCACUCCCUGAUCUCACAAAAGUGCGAGUUUCCAGUCCUGACUAACUAGGGCUCCAGUCAGU,0.389
